# Assay results of several laboratories.
# Parts stem from different laboratories: compare values within a part only. Substitutions count along the parent as printed.

# Series 1
# Target: Sal-like protein 4, full length isoform A (SALL4, Homo sapiens, UniProt Q9UJQ4, residues 1-1053)
# Chain of UniProt Q9UJQ4 (whole entry, looked up): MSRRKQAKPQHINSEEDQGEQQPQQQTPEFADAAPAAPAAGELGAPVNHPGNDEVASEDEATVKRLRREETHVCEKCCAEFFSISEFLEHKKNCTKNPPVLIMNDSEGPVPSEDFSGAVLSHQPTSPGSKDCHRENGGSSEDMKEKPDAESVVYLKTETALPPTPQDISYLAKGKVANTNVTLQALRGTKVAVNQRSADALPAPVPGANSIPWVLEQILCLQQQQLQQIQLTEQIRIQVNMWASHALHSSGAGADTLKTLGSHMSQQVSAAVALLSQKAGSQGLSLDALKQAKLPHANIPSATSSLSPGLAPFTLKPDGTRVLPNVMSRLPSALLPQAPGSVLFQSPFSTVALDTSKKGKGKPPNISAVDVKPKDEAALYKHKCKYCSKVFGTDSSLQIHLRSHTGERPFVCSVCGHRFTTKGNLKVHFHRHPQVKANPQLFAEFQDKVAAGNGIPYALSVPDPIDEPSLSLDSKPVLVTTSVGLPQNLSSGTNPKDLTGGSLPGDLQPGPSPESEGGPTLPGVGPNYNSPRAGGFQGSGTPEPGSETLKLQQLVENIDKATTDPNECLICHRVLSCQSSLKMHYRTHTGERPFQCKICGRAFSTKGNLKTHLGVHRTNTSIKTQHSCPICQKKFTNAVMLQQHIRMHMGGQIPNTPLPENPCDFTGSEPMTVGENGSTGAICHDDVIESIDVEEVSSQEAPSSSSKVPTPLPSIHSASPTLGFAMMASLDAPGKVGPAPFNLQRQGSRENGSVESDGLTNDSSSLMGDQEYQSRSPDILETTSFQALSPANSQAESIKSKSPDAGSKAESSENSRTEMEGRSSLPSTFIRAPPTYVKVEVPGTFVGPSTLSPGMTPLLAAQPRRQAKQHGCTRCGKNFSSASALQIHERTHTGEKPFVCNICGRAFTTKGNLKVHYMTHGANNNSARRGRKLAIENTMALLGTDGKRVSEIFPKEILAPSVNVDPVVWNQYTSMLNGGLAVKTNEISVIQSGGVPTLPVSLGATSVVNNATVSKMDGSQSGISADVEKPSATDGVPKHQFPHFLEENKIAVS
# Technique: universal PBM
# Form: double-stranded DNA, one strand shown
# Matrix: in vitro
# Tested at: 600 nM
# Notes: 8-mer, flanks averaged, mean of replicates
# Direction: higher = stronger binding
Strand,E-score
AAGTAGCG,-0.0911
ATAGTCCG,0.0385
ACGGTTTG,-0.134
TGTGATAA,0.292
ACCACCAC,0.00645
ATACGGAG,0.0601
CACTATAA,0.242
TAATTAGA,0.291

# Series 2
# Target: Ras GTPase-activating protein-binding protein 1, full length (G3BP1, Homo sapiens, UniProt Q13283)
# Chain of UniProt Q13283 (whole entry, looked up): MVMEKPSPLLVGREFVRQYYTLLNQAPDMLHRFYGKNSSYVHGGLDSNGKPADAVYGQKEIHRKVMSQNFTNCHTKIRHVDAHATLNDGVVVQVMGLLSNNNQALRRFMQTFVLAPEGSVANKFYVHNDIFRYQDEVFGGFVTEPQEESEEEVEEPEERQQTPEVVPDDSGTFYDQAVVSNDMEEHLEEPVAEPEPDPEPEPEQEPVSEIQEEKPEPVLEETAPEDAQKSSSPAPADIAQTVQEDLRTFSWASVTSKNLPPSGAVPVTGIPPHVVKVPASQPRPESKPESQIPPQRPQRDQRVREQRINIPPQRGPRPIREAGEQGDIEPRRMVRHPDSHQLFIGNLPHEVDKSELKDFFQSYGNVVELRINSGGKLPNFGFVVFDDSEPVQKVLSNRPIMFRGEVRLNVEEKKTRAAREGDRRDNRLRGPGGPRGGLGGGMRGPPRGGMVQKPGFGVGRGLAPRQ
# Technique: RNA Bind-n-Seq
# Form: RNA
# Matrix: in vitro
# Tested at: 200 nM
# Notes: whole 134-nt RNA, ends assumed
# Together with: 150 mM LiCl
# Reference: input library
# Direction: higher = stronger binding
# Library: 7-deaza-guanosine replaces G
# Constant ends, left off below: GGGAGUUCUACAGUCCGACGAUC … UGGAAUUCUCGGGUGUCAAGG
Strand,log2 enrichment
CAAGUCCUGUGCUACACAUCGUAUGUACCGAAUCGGGGCCGGGGCCGGGGCCGGGGAAAGUAUUAUGUUACGCCGUUCGGAUCUGCACUU,-0.285
AAGUCCUGUGCUACACAUCGUAUGUACCGAAUCGGGUUUUGGGGUUUUGGUUUUGGGAAAGUAUUAUGUUACGCCGUUCGGAUCUGCACU,-0.209
CACAGACAACACGCACAAACACAGACACAGAGGGAAGGGGUUGGGAUGGGGACAGGGUGCACAGCAGGGCGGGGUAGGACCCCAGCCCCU,0.417
CCUCAAGUCCUGUGCUACACAUCGUAUGUACCGAAUCGGAAGGGAAGGAAGGGAAAGUAUUAUGUUACGCCGUUCGGAUCUGCACUUCCA,-0.441
UUGCGAAAAGGACCAAUUCCAGUGCCGGAACGAGCGCUGCAUCCCCUCUGUGUGGAGAUGCGACGAGGACGAUGACUGCUUAGACCACAG,-0.426
UGCAUUUCCUGAGCUGAAGAAGGACCCAGACAUGGUGAAGGACAUCAUUAAUGAAGAAGAGGUGCAGUUUCUCAAGACUCUCAGCAGAGG,-1.48
CAAGUCCUGUGCUACACAUCGUAUGUACCGAAUCGGUUUGGGUUUGGGGUUUGGGGAAAGUAUUAUGUUACGCCGUUCGGAUCUGCACUU,-1.27
UAACUUUAGAGGAGGAUCUGAUGGAUAUGGCAGUGGUCGUGGAUUUGGGGAUGGCUAUAAUGGGUAUGGAGGAGGACCUGGAGGUGGCAA,-0.267

# Series 3
# Target: ABI1, truncated, D143A, DHFR fusion (Arabidopsis thaliana, UniProt P49597)
# Technique: DHFR PCA, dose-response
# Matrix: yeast
# Notes: Hill fit, mean, not affinity
# Together with: (+)-ABA, dose series
# Direction: lower = more sensitive
# Starting sequence: PYL1, truncated, DHFR fusion (Arabidopsis thaliana, UniProt Q8VZS8); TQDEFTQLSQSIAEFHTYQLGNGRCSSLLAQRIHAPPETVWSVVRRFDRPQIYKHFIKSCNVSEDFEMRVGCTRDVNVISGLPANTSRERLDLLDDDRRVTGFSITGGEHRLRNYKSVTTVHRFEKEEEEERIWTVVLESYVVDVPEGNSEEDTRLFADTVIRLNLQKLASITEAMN
Change,ABA EC50
C72Q,3.97 µM
R111P,359 µM
D97N,2 µM
Q7C,1.61 µM
I52Y,5.42 µM
N114E,125 µM
S59Q,3.75 µM
N61W,3.47 µM

# Further values, each from its own experiment
SMILES,cell line,technique,tested at,notes,reference,measurement,result
CC(C)CC(=O)N1CCc2nc(-c3ccc(Br)cc3)nc(N(C)Cc3ccccc3)c2C1,normal-adjacent organoid sample E,CellTiter-Glo,0.1 µM,replicate mean,DMSO,viability,160%

# Excerpt of the above (series 1):
Strand,E-score
TGTGATAA,0.292
ATACGGAG,0.0601
AAGTAGCG,-0.0911
